Assay results gathered from unrelated publications.
Lines come from different studies, so protocols differ. ± marks the error that the study gave. Converted amounts (≈) assume the structure as drawn.

SMILES | target or system | test | test system | conditions | how to read | quantity | value
[64Cu+2].c1ccc(CNCc2ccc(CN3CCCN4CCNCCCN(CC4)CC3)cc2)nc1 | CXCR4 |  | NOD/SCID mouse, U87 and U87-stb-CXCR4 xenografts | iv, 90 min, no blocking dose | baseline: U87-stb-CXCR4 tumour over blood | tumour-to-blood ratio | 11.5 ± 2.17
CCCCC/C=C/C(=O)CCc1ccc(O)c(OC)c1 | mouse mAb 1-D6 | antibody binding, indirect competitive ELISA |  | together with: coating antigen 1-OVA |  | IC50 | 0.658 µg/mL (≈ 2.38 µM)
CCCC[C@H](NC(=O)COCCOCCNC(=O)CN1CCN(CC(=O)O)CCN(CC(=O)O)CC1)C(=O)N[C@H]1CC(=O)NCCCC[C@@H](C(N)=O)NC(=O)[C@H](Cc2c[nH]c3ccccc23)NC(=O)[C@H](CCCNC(=N)N)NC(=O)[C@@H](Cc2ccccc2)NC(=O)[C@H](Cc2c[nH]cn2)NC1=O [copper-64 labelled] |  |  | C57 mice, lung | intravenous, 0.37 MBq, 0.5 h |  | tissue uptake | 4.04 ± 0.12 %ID/g
N=C(N)NCCC[C@@H]1NC(=O)[C@H](CCCCNC(=O)CC[C@H](NC(=O)CC[C@H](NC(=O)CN2CCN(CC(=O)O)CCN(CC(=O)O)CCN(CC(=O)O)CC2)C(=O)N[C@@H](CCC(=O)NCCCC[C@@H]2NC(=O)[C@@H](Cc3ccccc3)NC(=O)[C@H](CC(=O)O)NC(=O)CNC(=O)[C@H](CCCNC(=N)N)NC2=O)C(=O)NCCCC[C@@H]2NC(=O)[C@@H](Cc3ccccc3)NC(=O)[C@H](CC(=O)O)NC(=O)CNC(=O)[C@H](CCCNC(=N)N)NC2=O)C(=O)NCCCC[C@@H]2NC(=O)[C@@H](Cc3ccccc3)NC(=O)[C@H](CC(=O)O)NC(=O)CNC(=O)[C@H](CCCNC(=N)N)NC2=O)NC(=O)[C@@H](Cc2ccccc2)NC(=O)[C@H](CC(=O)O)NC(=O)CNC1=O [indium-111 labelled] |  |  | female athymic nu/nu mice, spleen | intravenous, 111 kBq, 72 h |  | tissue uptake | 1.16 ± 0.63 %ID/g
NS(=O)(=O)Nc1ncnc(OCCOc2ncc(Br)cn2)c1-c1ccc(Br)cc1 |  | Eadie-Hofstee plot, item: compound formation | male Sprague-Dawley rat, liver microsomes | 1500 mg/kg daily, 4 weeks |  | Vmax | 516 ± 15 pmol/min/mg
CCCC[C@H](NC(=O)CNC(=O)CNC(=O)CN1CCN(CC(=O)O)CCN(CC(=O)O)CC1)C(=O)N[C@H]1CC(=O)NCCCC[C@@H](C(N)=O)NC(=O)[C@H](Cc2c[nH]c3ccccc23)NC(=O)[C@H](CCCNC(=N)N)NC(=O)[C@@H](Cc2ccccc2)NC(=O)[C@H](Cc2c[nH]cn2)NC1=O [technetium-99m labelled] |  |  | C57 mouse, bone | iv, 0.037 MBq, 4 h |  | tissue uptake | 0.07 ± 0.06 %ID/g
CCCC[C@H](NC(=O)CCCCCCCNC(=O)CN1CCN(CC(=O)O)CCN(CC(=O)O)CC1)C(=O)N[C@H]1CC(=O)NCCCC[C@@H](C(N)=O)NC(=O)[C@H](Cc2c[nH]c3ccccc23)NC(=O)[C@H](CCCNC(=N)N)NC(=O)[C@@H](Cc2ccccc2)NC(=O)[C@H](Cc2c[nH]cn2)NC1=O [copper-64 labelled] |  |  | C57 mice, intestine | intravenous, 0.37 MBq, 4 h |  | tissue uptake | 2.04 ± 0.25 %ID
N=C(N)NCCC[C@@H]1NC(=O)[C@H](CCCCNC(=O)CNC(=O)CNC(=O)CNC(=O)CC[C@H](NC(=O)CNC(=O)CNC(=O)CNC(=O)CC[C@H](NC(=O)CN2CCN(CC(=O)O)CCN(CC(=O)O)CCN(CC(=O)O)CC2)C(=O)NCC(=O)NCC(=O)NCC(=O)N[C@@H](CCC(=O)NCC(=O)NCC(=O)NCC(=O)NCCCC[C@@H]2NC(=O)[C@@H](Cc3ccccc3)NC(=O)[C@H](CC(=O)O)NC(=O)CNC(=O)[C@H](CCCNC(=N)N)NC2=O)C(=O)NCC(=O)NCC(=O)NCC(=O)NCCCC[C@@H]2NC(=O)[C@@H](Cc3ccccc3)NC(=O)[C@H](CC(=O)O)NC(=O)CNC(=O)[C@H](CCCNC(=N)N)NC2=O)C(=O)NCC(=O)NCC(=O)NCC(=O)NCCCC[C@@H]2NC(=O)[C@@H](Cc3ccccc3)NC(=O)[C@H](CC(=O)O)NC(=O)CNC(=O)[C@H](CCCNC(=N)N)NC2=O)NC(=O)[C@@H](Cc2ccccc2)NC(=O)[C@H](CC(=O)O)NC(=O)CNC1=O [indium-111 labelled] |  |  | female athymic nu/nu mice, muscle | intravenous, 0.5 h |  | tissue uptake | 1.23 ± 0.42 %ID/g
COc1cc(CCC(C)=O)ccc1O | mouse mAb 1-D6 | antibody binding, indirect competitive ELISA |  | together with: coating antigen 6-OVA |  | IC50 | 0.2 µg/mL (≈ 1.03 µM)
CC(C)C[C@H](NC(=O)[C@@H](CCCCNC(=O)CCCCCNC(=O)CN1CCN(CC(=O)O)CCN(CC(=O)O)CCN(CC(=O)O)CC1)NC(=O)[C@H](Cc1ccc(O)cc1)NC(=O)[C@H](CO)NC(=O)[C@H](Cc1c[nH]c2ccccc12)NC(=O)[C@H](Cc1cnc[nH]1)NC(=O)[C@@H]1CCC(=O)N1)C(=O)N[C@@H](CCCNC(=N)N)C(=O)N1CCC[C@H]1C(=O)NCC(N)=O [indium-111 labelled] |  |  | female athymic nude mouse, stomach | intravenous, 0.037 MBq, 24 h |  | tissue uptake | 0.04 ± 0.01 %ID/g
CC(C)C[C@H](NC(=O)[C@H](Cc1ccc(O)cc1)NC(=O)[C@@H](CCCNC(=N)N)NC(=O)[C@@H](CO)NC(=O)[C@H](Cc1ccccc1)NC(=O)[C@H](CC1CCCCC1)NC(=O)[C@H](CC(=O)O)NC(=O)CN1CCCN2CCN(CCCN(CC(=O)O)CC2)CC1)C(=O)N[C@@H](Cc1c[nH]c2ccccc12)C(=O)N[C@@H](CO)C(=O)O [copper-64 labelled] |  |  | female NMRI nude mice, blood | 1 h p.i. |  | tissue uptake | 1.4 ± 0.2 %ID/g
N=C(N)NCCC[C@@H]1NC(=O)[C@H](CCCCNC(=O)CNC(=O)CNC(=O)CNC(=O)CC[C@H](NC(=O)CNC(=O)CNC(=O)CNC(=O)CN2CCN(CC(=O)O)CCN(CC(=O)O)CCN(CC(=O)O)CC2)C(=O)NCC(=O)NCC(=O)NCC(=O)NCCCC[C@@H]2NC(=O)[C@@H](Cc3ccccc3)NC(=O)[C@H](CC(=O)O)NC(=O)CNC(=O)[C@H](CCCNC(=N)N)NC2=O)NC(=O)[C@@H](Cc2ccccc2)NC(=O)[C@H](CC(=O)O)NC(=O)CNC1=O [indium-111 labelled] |  |  | female athymic nu/nu mice, lungs | intravenous, 24 h |  | tissue uptake | 0.75 ± 0.02 %ID/g
CCCC[C@H](NC(=O)CNC(=O)CNC(=O)CN1CCN(CC(=O)O)CCN(CC(=O)O)CCN(CC(=O)O)CC1)C(=O)N[C@H]1CC(=O)NCCCC[C@@H](C(N)=O)NC(=O)[C@H](Cc2c[nH]c3ccccc23)NC(=O)[C@H](CCCNC(=N)N)NC(=O)[C@@H](Cc2ccccc2)NC(=O)[C@H](Cc2c[nH]cn2)NC1=O [lutetium-177 labelled] |  |  | C57 mouse, female, skin | intravenous, 0.037 MBq, 2 h |  | tissue uptake | 0.48 ± 0.06 %ID/g
